Assay results collected from several papers.
Lines come from different studies, so protocols differ. Several values in a cell are separate wells, animals, samples, runs or records. ± gives the spread as reported.
Chain of UniProt P46095 (whole entry, looked up): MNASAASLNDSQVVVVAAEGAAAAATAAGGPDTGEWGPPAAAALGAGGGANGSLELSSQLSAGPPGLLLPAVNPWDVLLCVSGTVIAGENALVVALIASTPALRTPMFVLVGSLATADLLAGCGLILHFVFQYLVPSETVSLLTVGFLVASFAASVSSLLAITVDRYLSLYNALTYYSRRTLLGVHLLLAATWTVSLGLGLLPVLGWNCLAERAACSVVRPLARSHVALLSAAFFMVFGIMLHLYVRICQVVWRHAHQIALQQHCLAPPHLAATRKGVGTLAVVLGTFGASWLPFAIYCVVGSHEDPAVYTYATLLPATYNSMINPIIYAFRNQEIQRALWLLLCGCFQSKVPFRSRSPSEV
Chain of UniProt Q96S44 (whole entry, looked up): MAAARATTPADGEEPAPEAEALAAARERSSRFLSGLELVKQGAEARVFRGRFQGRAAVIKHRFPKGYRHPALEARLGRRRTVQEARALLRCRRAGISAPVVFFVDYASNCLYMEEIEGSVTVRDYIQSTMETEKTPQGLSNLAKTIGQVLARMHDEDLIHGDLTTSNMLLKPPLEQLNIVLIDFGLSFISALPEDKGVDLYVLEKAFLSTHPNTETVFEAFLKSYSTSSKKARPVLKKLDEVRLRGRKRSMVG
Chain of UniProt P23946 (whole entry, looked up): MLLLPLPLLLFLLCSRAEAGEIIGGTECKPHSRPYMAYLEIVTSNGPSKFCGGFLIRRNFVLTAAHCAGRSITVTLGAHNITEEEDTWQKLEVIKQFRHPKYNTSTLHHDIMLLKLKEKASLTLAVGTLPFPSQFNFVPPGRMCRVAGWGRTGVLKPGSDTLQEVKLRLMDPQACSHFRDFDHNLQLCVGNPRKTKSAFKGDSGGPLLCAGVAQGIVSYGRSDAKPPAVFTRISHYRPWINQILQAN

| SMILES | tested on | test | system | setting | scale | quantity | value |
| --- | --- | --- | --- | --- | --- | --- | --- |
| Brc1ccc(Oc2cc(Br)c(Br)cc2Br)c(Br)c1 | – | – | cow whole milk | 20 nM | reference: milk fat over skim milk | milk fat partition ratio | 198 |
| C=CC[N+](C)(C)c1ccc(CCC(=O)CCc2ccc([N+](C)(C)CC=C)cc2)cc1 | Acetylcholinesterase (Rhipicephalus microplus, UniProt O45210, W384F) | – | – | – | – | IC50 | 1570 nM |
| CC(C)C[C@@H]1NC(=O)[C@H](CC(C)C)NC(=O)[C@H](Cc2c[nH]c3ccccc23)NC(=O)[C@H](CO)NC(=O)[C@H](Cc2c[nH]c3ccccc23)NC(=O)[C@@H]2CCCN2C(=O)[C@H](CC(C)C)NC(=O)[C@H](Cc2c[nH]cn2)NC(=O)[C@@H]2CCCN2C(=O)[C@H](CC(N)=O)NC(=O)[C@H](C)NC(=O)[C@H](Cc2ccc(O)cc2)NC(=O)[C@H](CS)NC(=O)[C@H](CCCCNC(=O)CN2CCN(CC(=O)O)CCN(CC(=O)O)CCN(CC(=O)O)CC2)NC1=O [lutetium-177 labelled] | – | – | Balb/c mouse, female, 4T1 tumour, intestine | intravenous, 3.7 MBq, 4 h | – | tissue uptake | 2.18 ± 0.72 %ID |
| CC(=O)c1c(C)c2cnc(Nc3ccc(C4CCN(CCS(C)(=O)=O)CC4)cn3)nc2n(C2CCCC2)c1=O | – | – | human, plasma | oral, 75 mg twice daily, day 21, multiple doses, together with: fulvestrant | – | Vd | 229 L |
| CC[C@H](C)[C@@H]1NC(=O)[C@@H]2CCCN2C(=O)[C@H](CC(C)C)NC(=O)[C@H](CC(C)C)NC(=O)CNC(=O)[C@@H](NC(=O)[C@@H](NC(=O)[C@H](CC(=O)O)NC(=O)CNC(=O)[C@@H](NC(=O)[C@H](C)NC(=O)CNC(=O)[C@H](CCCCN)NC(=O)[C@H](CC(C)C)NC(=O)[C@H](CC(C)C)NC(=O)[C@H](CCCCN)NC(=O)CNC(=O)[C@@H](NC(=O)[C@@H](N)CC(C)C)C(C)C)C(C)C)C(C)C)CSSC[C@@H](C(=O)O)NC1=O | – | RNA-seq, refers to: Prss30 mRNA | mouse traumatic brain injury, frontal cortex and hippocampus | dose not given | reference: TBI plus compound vs TBI | log2 fold change | -2.24 |
| CC(C)[C@@H]1NC(=O)CNC(=O)[C@H](CC(N)=O)NC(=O)[C@H](CCCNC(=N)N)NC(=O)[C@H](Cc2ccc(O)cc2)NC(=O)[C@H](C(C)C)NC(=O)[C@@H](NC(=O)[C@@H](NC(=O)[C@H](CC(N)=O)NC(=O)[C@H](Cc2c[nH]c3ccccc23)NC(=O)[C@H](C)NC(=O)[C@H](Cc2ccccc2)NC(=O)CN)C(C)C)CSSC[C@@H](C(=O)N[C@@H](Cc2cnc[nH]2)C(=O)N[C@@H](CCCNC(=N)N)C(=O)N[C@@H](CCCNC(=N)N)C(=O)N[C@@H](C)C(=O)N[C@@H](CC(N)=O)C(N)=O)NC(=O)[C@H](C(C)C)NC(=O)[C@H](CCCNC(=N)N)NC1=O | – | – | ICR mouse, blood | intramammary, 10 mg/kg, day 5, 3 d dosing | – | AST | 26.2 ± 1.07 IU/L |
| O=C(O)CCCOc1ccc(F)cc1-c1cc(-c2ccccc2C(F)(F)F)n(-c2ccccc2)n1 | – | refers to: β-glb | Crl:CD(SD) rats, female, serum | iv, 25 µg/kg, 14 days | – | serum protein fraction | 14 ± 2.3% |
| N[C@@H]1c2ccccc2OC12CCN(c1cnc3c(N4CCCc5ncccc54)n[nH]c3n1)CC2 | – | – | advanced solid tumour patients | oral, 50 mg once daily | – | TEAE causing dose reduction | 0% |
| C1=Cc2nc1cc1ccc([n-]1)c(C1CC1)c1nc(cc3ccc([n-]3)c2C2CC2)C=C1.CC(=O)[O-].[Mn+3] | – | LC-MS/MS | Sprague-Dawley rat, plasma | oral gavage, dose not given, 60 min, individual rat Rat1 | – | plasma concentration | 100 ng/mL |
| COc1cccc(Oc2ccccc2NC(=O)CNC(=O)c2cccc3ccccc23)c1 | – | – | esterase-deficient SCID mice, male | oral, 15 mg/kg/day, 14 days, toxicity study | – | serum albumin | 3 g/dL and 2.9 g/dL |
| Oc1ccc2c3c1O[C@H]1[C@@H](O)CC[C@@]4(O)[C@@H](C2)N(CC2CCC2)CC[C@]314 | G-protein coupled receptor 6 (Homo sapiens, UniProt P46095) | β-arrestin recruitment, TANGO luminescence, refers to: GPR6 | – | concentration not given | reference: basal luminescence | log2 fold change | 0.122 |
| CN1CC[C@@H](c2c(O)cc(O)c3c(=O)cc(-c4ccc(C(F)(F)F)cc4Cl)oc23)[C@@H]1CO | – | refers to: Lymphopenia | relapsed B-cell malignancies | oral, 100 mg, grade 3-4, intermittent dosing | – | patients with adverse event | 0% |
| CO[C@H]1C[C@@H]2CC[C@@H](C)[C@@](O)(O2)C(=O)C(=O)N2CCCC[C@H]2C(=O)O[C@H]([C@H](C)C[C@@H]2CC[C@@H](OC(=O)NCCOCCOCCOCCOCCOCCOCCOCCOCCC(=O)N3CCc4cc(Cn5nc(-c6ccc7oc(N)nc7c6)c6c(N)ncnc65)ccc4C3)[C@H](OC)C2)C[C@@H](O)[C@H](C)/C=C(\C)[C@@H](O)[C@@H](OC)C(=O)[C@H](C)C[C@H](C)/C=C/C=C/C=C/1C | – | phase 1 dose escalation, refers to: mucositis | advanced solid tumour patients | intravenous, 10 mg weekly, grade ≥3 | – | dose-reducing adverse events | 0% |
| CC(=O)N(C)[C@H]1CCN(C(=O)c2cnc3c(c2)C[C@](C)(c2ccc(F)cc2)N3)C1 | – | refers to: urinary frequency | human | oral, dose not given, together with: midazolam | – | adverse event duration | 3 days |
| C[C@H]1CN(c2n[nH]c3nc(N[C@H]4CC[C@H](NS(=O)(=O)CCC(F)(F)F)CC4)ncc23)CCO1 | TP53RK (Homo sapiens, UniProt Q96S44) | inhibitor, Kinobeads competition profiling | – | 20 µM | reference: vehicle | relative abundance | 1.11 |
| C[C@@H](O)[C@@H](CO)NC(=O)[C@@H](CCCNC(=N)N)NC(=O)[C@@H]1CCCN1C(=O)[C@@H]1CSSC[C@H](NC(=O)[C@H](Cc2ccccc2)NC(=O)CN2CCN(CC(=O)O)CCN(CC(=O)O)CCN(CC(=O)O)CC2)C(=O)N[C@@H](Cc2ccc(O)cc2)C(=O)N[C@@H](Cc2ccccc2)C(=O)N[C@@H](CCC(N)=O)C(=O)N[C@@H](CC(N)=O)C(=O)N1 [gallium-68 labelled] | – | – | healthy Wistar rat, thyroid | intravenous, 8 MBq, 30 min, individual animals | – | tissue uptake | 0.28 %ID/g |
| COc1cc(Nc2ncc(F)c(Nc3ccc4c(n3)NC(=O)C(C)(C)O4)n2)cc(OC)c1OC | Chymase (CMA1, Homo sapiens, UniProt P23946) | – | – | – | – | IC50 | > 10000 nM |
| CC(C)n1c(C2CCNCC2)nc2c([N+](=O)[O-])c(Br)c(Br)cc21 | – | refers to: Sepsis | AML patients | 125 mg | – | adverse events causing interruption | 4% |
| Cn1ncc(-c2nc(N[C@H]3CC[C@H](N)CC3)ncc2Cl)c1CC1CC1 | – | HPLC-MS/MS | patients, plasma | oral, 1 mg, day 5 | – | half-life | 17.7 h |
| O=c1cc(-c2ccc(O)c(O)c2)oc2cc(O)cc(O)c12 | – | – | male Sprague-Dawley rat, obese | oral, 100 mg/kg of neohesperidin, 0 to 12 h, after β-glucuronidase/sulfatase hydrolysis | – | urinary excreted amount, total | 186 ± 28.5 ng |
| C[C@]1(CO)Cc2ncn(-c3ccc(C#N)c(Cl)c3)c2C(=O)O1 | – | – | healthy Japanese adults, plasma | 40 mg once daily, multiple dose | – | Cmax at steady state | 2830 nM |

Some of these lines once more:
| SMILES | tested on | test | system | setting | scale | quantity | value |
| --- | --- | --- | --- | --- | --- | --- | --- |
| C[C@@H](O)[C@@H](CO)NC(=O)[C@@H](CCCNC(=N)N)NC(=O)[C@@H]1CCCN1C(=O)[C@@H]1CSSC[C@H](NC(=O)[C@H](Cc2ccccc2)NC(=O)CN2CCN(CC(=O)O)CCN(CC(=O)O)CCN(CC(=O)O)CC2)C(=O)N[C@@H](Cc2ccc(O)cc2)C(=O)N[C@@H](Cc2ccccc2)C(=O)N[C@@H](CCC(N)=O)C(=O)N[C@@H](CC(N)=O)C(=O)N1 [gallium-68 labelled] | – | – | healthy Wistar rat, thyroid | intravenous, 8 MBq, 30 min, individual animals | – | tissue uptake | 0.28 %ID/g |
| COc1cc(Nc2ncc(F)c(Nc3ccc4c(n3)NC(=O)C(C)(C)O4)n2)cc(OC)c1OC | Chymase (CMA1, Homo sapiens, UniProt P23946) | – | – | – | – | IC50 | > 10000 nM |
